# Published values from different studies.
# Each line is one published result; not all experiments were run side by side.
# 4'-phosphopantetheinyl transferase PptT: 4'-phosphopantetheinyl transferase PptT (Mycobacterium tuberculosis, UniProt O33336)
# Chain of UniProt O33336 (whole entry, looked up): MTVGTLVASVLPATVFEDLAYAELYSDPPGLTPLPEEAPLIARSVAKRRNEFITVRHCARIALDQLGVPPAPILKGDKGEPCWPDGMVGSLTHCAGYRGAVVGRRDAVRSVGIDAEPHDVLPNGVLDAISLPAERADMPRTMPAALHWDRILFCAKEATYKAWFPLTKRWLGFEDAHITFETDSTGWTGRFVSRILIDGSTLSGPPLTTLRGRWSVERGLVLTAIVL
# Chain of UniProt P51956 (whole entry, looked up): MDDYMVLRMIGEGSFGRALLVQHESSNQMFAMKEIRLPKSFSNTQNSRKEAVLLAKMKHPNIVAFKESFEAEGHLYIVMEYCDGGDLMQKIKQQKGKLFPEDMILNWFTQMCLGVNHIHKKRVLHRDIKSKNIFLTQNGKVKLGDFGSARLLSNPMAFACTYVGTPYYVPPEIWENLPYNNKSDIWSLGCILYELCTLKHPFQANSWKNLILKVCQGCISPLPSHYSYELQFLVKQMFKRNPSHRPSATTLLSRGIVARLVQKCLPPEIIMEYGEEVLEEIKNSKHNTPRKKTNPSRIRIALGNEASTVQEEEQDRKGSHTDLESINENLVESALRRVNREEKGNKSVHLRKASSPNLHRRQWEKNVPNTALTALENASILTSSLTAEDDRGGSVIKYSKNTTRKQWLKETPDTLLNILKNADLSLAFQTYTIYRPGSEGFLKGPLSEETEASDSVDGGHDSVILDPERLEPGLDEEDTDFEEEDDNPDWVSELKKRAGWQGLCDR
# Chain of UniProt P42336 (whole entry, unmodified, looked up): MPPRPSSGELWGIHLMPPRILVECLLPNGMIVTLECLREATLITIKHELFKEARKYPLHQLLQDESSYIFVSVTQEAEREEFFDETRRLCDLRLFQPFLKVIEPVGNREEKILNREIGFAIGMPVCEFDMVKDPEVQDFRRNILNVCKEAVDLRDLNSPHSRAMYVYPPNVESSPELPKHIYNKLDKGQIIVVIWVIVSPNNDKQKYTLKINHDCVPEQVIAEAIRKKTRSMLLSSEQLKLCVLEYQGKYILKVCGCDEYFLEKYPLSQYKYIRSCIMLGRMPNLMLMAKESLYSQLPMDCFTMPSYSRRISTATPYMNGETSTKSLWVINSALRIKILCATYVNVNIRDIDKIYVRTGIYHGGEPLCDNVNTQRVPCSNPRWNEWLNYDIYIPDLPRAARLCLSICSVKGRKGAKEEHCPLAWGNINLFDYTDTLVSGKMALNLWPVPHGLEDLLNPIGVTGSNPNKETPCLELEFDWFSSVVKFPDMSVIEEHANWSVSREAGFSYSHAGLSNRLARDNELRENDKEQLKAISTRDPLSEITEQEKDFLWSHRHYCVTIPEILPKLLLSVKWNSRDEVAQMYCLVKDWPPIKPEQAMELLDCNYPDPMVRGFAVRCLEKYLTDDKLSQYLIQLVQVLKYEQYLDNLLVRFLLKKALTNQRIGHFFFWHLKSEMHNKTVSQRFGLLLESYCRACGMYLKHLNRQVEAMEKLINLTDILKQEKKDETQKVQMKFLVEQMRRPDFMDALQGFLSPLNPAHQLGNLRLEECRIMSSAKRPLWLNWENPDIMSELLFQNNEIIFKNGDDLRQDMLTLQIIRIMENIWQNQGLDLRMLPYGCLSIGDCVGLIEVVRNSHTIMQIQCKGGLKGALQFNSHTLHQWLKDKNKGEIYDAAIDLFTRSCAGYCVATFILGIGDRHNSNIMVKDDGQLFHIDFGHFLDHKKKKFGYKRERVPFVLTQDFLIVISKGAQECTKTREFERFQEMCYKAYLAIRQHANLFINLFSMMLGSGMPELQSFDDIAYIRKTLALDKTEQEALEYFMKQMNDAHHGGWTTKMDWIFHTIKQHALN
# Chain of UniProt P36897 (whole entry, looked up): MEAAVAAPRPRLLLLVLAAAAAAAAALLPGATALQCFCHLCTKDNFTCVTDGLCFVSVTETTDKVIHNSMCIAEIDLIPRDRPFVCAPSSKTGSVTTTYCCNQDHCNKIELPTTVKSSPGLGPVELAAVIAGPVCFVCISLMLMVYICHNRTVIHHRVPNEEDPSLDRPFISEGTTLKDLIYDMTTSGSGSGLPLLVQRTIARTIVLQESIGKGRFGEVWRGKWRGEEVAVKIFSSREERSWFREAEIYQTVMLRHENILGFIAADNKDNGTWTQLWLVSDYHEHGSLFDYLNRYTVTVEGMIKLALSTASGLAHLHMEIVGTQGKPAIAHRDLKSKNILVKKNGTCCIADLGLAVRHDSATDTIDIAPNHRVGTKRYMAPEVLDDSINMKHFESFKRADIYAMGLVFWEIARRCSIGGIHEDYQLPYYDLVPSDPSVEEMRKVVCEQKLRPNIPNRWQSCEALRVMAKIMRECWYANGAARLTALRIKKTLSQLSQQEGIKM
# Chain of UniProt Q8TBX8 (whole entry, looked up): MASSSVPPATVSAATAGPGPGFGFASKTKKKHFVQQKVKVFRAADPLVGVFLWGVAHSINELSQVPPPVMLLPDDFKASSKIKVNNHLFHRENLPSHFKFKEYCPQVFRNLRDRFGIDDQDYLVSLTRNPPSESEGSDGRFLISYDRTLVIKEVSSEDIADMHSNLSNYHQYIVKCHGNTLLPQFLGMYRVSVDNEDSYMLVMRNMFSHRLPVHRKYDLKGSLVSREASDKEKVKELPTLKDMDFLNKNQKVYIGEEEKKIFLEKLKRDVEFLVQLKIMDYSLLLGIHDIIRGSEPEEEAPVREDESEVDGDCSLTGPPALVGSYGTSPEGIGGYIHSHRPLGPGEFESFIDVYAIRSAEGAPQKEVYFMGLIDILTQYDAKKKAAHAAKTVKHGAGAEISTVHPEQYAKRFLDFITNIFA
Structure (SMILES),tested on,test,conditions,quantity,value
CCOC(=O)C1=C(CN2CCC(C(=O)Nc3ccc(B(O)O)cc3)C2)NC(c2nccs2)=NC1c1ccc(F)cc1Br (stereo not shown),HepDES19,"cell growth or viability, MTS",72 h,CC50,26.8 µM
[2H]c1c([2H])c([C@]2([2H])CCCN2C(=O)C(C)(C)Oc2ccc3cn[nH]c3c2)c([2H])c([2H])c1C([2H])([2H])[2H],"Phosphatidylinositol 5-phosphate 4-kinase type-2 gamma (PIP4K2C, Homo sapiens, UniProt Q8TBX8)","binding, competition with immobilised ligand",1 µM,remaining binding,98%
CC(C)C[C@H](NC(=O)[C@@H](NC(=O)c1ccncc1)C(C)C)C(=O)N[C@H](C=O)C[C@@H]1CCCNC1=O,A549,"cell growth or viability, MTT",24 h,CC50,> 100 µM
COc1ncccc1-c1cnn2ccc(N3CCN(C(=O)OC(C)C)CC3)nc12,"Serine/threonine-protein kinase Nek3 (NEK3, Homo sapiens, UniProt P51956)","binding, competition with immobilised ligand",1 µM,remaining binding,84%
COc1ccc2cc1Oc1ccc(cc1)C[C@H]1c3c(cc4c(c3Oc3cc5c(cc3OC)CCN(C)[C@@H]5C2)OCO4)CCN1C,MDCK,"cell growth or viability, CCK-8",48 h,CC50,68.3 µM
CCC(CC)COC(=O)[C@H](C)N[P@](=O)(OC[C@H]1O[C@@](C#N)(c2ccc3c(N)ncnn23)[C@H](O)[C@@H]1O)Oc1ccccc1,Calu-3,cell growth or viability,,CC50,> 100 µM
C[N+]1=C2C=C(N)C(=O)c3[nH]cc(c32)CC1,HCT-116,"cell growth or viability, MTT",72 h,CC50,0.78 µM
COC(=O)OCc1cc2[nH]c(=S)n(Cc3cccnc3)c(=O)c2cc1Cl,4'-phosphopantetheinyl transferase PptT,"enzyme activity, inhibitor, FP",,IC50,16.5 µM
CCOC(=O)C1=C(CN2CCC(C(=O)Nc3cccc(B(O)O)c3)C2)NC(c2nccs2)=NC1c1ccc(F)cc1Br (stereo not shown),HepDES19,"cell growth or viability, MTS",72 h,CC50,27.1 µM
Cc1nn(C)cc1-c1nc2c(N3CCN(Cc4ccc(Cl)cc4)CC3)c(Cl)cnc2[nH]1,"TGF-beta receptor type-1 (TGFBR1, Homo sapiens, UniProt P36897)","binding, competition with immobilised ligand",1 µM,remaining binding,83%
CCOC(=O)C1=C(CN2CCN(Cc3ccc(B4OC(C)(C)C(C)(C)O4)cc3)CC2)NC(c2nccs2)=NC1c1ccc(F)cc1Br (stereo not shown),HepDES19,"cell growth or viability, MTS",72 h,CC50,42.3 µM
O=c1c2cc(Cl)ccc2[nH]c(=S)n1Cc1ccc(-c2cscn2)nc1,4'-phosphopantetheinyl transferase PptT,"enzyme activity, inhibitor, FP",,IC50,0.35 µM
COc1ccc2cc1Oc1ccc(cc1)C[C@H]1c3cc(c(OC)cc3CCN1C)Oc1c(OC)c(OC)cc3c1[C@H](C2)N(C)CC3,MDCK,"cell growth or viability, CCK-8",48 h,CC50,66.8 µM
O=c1nc(NO)ccn1[C@@H]1O[C@H](CO)[C@@H](O)[C@H]1O,Huh-7,cell growth or viability,,CC50,56.7 µM
CC(C)C[C@H](NC(=O)[C@@H](NC(=O)c1ccccc1)C(C)C)C(=O)N[C@H](C=O)C[C@@H]1CCCNC1=O,A549,"cell growth or viability, MTT",24 h,CC50,> 100 µM
CCOC(=O)C1=C(CN2CCC(C(=O)Nc3cccc(B4OC(C)(C)C(C)(C)O4)c3)C2)NC(c2nccs2)=NC1c1ccc(F)cc1Br (stereo not shown),HepDES19,"cell growth or viability, MTS",72 h,CC50,33.3 µM
CC(C)C[C@H](NC(=O)/C=C/c1ccccc1)C(=O)N[C@H](C=O)C[C@@H]1CCNC1=O,A549,"cell growth or viability, MTT",24 h,CC50,> 100 µM
CCOC(=O)C1=C(CN2CCN(Cc3cccc(B4OC(C)(C)C(C)(C)O4)c3)CC2)NC(c2nccs2)=NC1c1ccc(F)cc1Br (stereo not shown),HepDES19,"cell growth or viability, MTS",72 h,CC50,23.5 µM
CC(C)C[C@H](NC(=O)[C@@H](NC(=O)c1ccccn1)C(C)C)C(=O)N[C@H](C=O)C[C@@H]1CCCNC1=O,A549,"cell growth or viability, MTT",24 h,CC50,> 100 µM
C[C@H]1CCC/C=C/[C@@H]2C[C@H](O)C[C@H]2[C@H](O)/C=C/C(=O)O1,HepG2,"cell growth or viability, ATP luminescence",72 h,CC50,60 µM
Nc1ncc(-c2nc(N3CCOCC3)nc(N3CCOCC3)n2)c(C(F)F)n1,"Phosphatidylinositol 4,5-bisphosphate 3-kinase catalytic subunit alpha isoform (PIK3CA, Homo sapiens, UniProt P42336, M1043I)","binding, competition with immobilised ligand",10 µM,remaining binding,0%
CC(C)C[C@H](NC(=O)[C@@H](NC(=O)c1ccc(F)cc1)C(C)C)C(=O)N[C@H](C=O)C[C@@H]1CCCNC1=O,A549,"cell growth or viability, MTT",24 h,CC50,> 100 µM

# For quick reference, copied from above:
Structure (SMILES),tested on,test,conditions,quantity,value
CCOC(=O)C1=C(CN2CCC(C(=O)Nc3cccc(B4OC(C)(C)C(C)(C)O4)c3)C2)NC(c2nccs2)=NC1c1ccc(F)cc1Br (stereo not shown),HepDES19,"cell growth or viability, MTS",72 h,CC50,33.3 µM
CCOC(=O)C1=C(CN2CCN(Cc3ccc(B4OC(C)(C)C(C)(C)O4)cc3)CC2)NC(c2nccs2)=NC1c1ccc(F)cc1Br (stereo not shown),HepDES19,"cell growth or viability, MTS",72 h,CC50,42.3 µM
COc1ncccc1-c1cnn2ccc(N3CCN(C(=O)OC(C)C)CC3)nc12,"Serine/threonine-protein kinase Nek3 (NEK3, Homo sapiens, UniProt P51956)","binding, competition with immobilised ligand",1 µM,remaining binding,84%
Cc1nn(C)cc1-c1nc2c(N3CCN(Cc4ccc(Cl)cc4)CC3)c(Cl)cnc2[nH]1,"TGF-beta receptor type-1 (TGFBR1, Homo sapiens, UniProt P36897)","binding, competition with immobilised ligand",1 µM,remaining binding,83%
